Assay results from different studies.
Every numbered part comes from another study and shows a few of its results, in no order.
Chain of UniProt O15264 (whole entry, looked up): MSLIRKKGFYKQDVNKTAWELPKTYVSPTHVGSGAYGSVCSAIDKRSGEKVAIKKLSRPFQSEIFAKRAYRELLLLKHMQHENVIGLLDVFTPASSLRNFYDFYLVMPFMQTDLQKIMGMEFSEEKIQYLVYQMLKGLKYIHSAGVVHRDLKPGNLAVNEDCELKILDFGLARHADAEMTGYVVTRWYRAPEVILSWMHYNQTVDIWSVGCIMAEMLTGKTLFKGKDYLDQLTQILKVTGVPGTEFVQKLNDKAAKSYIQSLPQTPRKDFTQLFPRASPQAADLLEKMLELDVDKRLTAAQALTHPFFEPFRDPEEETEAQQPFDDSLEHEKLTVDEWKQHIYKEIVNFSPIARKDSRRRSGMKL
Chain of UniProt O60674 (whole entry, looked up): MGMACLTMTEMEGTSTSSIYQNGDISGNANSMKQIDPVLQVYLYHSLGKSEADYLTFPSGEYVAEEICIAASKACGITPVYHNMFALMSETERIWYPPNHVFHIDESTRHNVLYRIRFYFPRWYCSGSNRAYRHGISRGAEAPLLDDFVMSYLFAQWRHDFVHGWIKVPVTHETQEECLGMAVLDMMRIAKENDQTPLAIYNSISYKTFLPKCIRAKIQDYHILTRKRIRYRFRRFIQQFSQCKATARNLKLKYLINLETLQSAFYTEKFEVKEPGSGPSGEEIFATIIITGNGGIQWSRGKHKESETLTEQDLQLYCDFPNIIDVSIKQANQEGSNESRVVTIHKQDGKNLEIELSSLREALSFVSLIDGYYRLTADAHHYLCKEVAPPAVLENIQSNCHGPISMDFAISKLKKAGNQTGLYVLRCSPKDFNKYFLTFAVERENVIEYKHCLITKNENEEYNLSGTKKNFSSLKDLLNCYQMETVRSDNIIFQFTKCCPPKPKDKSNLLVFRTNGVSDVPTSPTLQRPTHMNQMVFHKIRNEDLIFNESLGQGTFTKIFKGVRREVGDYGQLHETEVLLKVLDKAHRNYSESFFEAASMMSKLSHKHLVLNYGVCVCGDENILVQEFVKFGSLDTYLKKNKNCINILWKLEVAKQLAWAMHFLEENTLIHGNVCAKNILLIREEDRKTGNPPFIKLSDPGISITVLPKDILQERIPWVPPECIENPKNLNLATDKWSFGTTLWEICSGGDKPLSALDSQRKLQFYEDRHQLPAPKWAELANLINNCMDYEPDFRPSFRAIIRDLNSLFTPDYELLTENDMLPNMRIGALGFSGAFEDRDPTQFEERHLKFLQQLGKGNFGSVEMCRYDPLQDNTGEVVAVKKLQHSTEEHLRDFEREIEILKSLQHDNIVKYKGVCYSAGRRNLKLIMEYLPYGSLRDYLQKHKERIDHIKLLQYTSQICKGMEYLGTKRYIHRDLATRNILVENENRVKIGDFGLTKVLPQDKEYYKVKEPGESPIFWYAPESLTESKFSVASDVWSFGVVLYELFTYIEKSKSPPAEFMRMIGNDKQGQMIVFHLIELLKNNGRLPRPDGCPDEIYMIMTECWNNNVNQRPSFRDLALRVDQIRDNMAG
Chain of UniProt P04629 (whole entry, looked up): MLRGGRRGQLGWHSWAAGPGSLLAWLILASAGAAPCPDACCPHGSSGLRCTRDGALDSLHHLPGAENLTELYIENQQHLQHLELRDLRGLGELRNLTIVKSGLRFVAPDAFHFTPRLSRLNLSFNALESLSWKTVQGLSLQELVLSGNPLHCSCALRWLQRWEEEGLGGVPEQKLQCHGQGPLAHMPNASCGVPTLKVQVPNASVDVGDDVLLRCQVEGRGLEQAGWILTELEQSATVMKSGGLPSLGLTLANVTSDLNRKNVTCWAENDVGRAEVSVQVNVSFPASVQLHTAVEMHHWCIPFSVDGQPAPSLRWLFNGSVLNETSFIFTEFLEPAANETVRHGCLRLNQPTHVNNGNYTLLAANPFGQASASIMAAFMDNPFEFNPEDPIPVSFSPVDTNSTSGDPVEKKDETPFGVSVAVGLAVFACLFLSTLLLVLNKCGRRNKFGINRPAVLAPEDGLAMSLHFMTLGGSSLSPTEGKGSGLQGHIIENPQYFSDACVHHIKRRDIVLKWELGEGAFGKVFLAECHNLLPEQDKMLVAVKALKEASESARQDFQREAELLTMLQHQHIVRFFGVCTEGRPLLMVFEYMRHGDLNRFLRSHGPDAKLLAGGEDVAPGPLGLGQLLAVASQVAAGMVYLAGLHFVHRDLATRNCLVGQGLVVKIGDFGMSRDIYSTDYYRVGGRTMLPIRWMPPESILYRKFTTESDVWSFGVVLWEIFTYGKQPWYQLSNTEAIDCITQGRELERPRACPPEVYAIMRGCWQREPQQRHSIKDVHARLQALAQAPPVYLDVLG
Chain of UniProt P23458 (whole entry, looked up): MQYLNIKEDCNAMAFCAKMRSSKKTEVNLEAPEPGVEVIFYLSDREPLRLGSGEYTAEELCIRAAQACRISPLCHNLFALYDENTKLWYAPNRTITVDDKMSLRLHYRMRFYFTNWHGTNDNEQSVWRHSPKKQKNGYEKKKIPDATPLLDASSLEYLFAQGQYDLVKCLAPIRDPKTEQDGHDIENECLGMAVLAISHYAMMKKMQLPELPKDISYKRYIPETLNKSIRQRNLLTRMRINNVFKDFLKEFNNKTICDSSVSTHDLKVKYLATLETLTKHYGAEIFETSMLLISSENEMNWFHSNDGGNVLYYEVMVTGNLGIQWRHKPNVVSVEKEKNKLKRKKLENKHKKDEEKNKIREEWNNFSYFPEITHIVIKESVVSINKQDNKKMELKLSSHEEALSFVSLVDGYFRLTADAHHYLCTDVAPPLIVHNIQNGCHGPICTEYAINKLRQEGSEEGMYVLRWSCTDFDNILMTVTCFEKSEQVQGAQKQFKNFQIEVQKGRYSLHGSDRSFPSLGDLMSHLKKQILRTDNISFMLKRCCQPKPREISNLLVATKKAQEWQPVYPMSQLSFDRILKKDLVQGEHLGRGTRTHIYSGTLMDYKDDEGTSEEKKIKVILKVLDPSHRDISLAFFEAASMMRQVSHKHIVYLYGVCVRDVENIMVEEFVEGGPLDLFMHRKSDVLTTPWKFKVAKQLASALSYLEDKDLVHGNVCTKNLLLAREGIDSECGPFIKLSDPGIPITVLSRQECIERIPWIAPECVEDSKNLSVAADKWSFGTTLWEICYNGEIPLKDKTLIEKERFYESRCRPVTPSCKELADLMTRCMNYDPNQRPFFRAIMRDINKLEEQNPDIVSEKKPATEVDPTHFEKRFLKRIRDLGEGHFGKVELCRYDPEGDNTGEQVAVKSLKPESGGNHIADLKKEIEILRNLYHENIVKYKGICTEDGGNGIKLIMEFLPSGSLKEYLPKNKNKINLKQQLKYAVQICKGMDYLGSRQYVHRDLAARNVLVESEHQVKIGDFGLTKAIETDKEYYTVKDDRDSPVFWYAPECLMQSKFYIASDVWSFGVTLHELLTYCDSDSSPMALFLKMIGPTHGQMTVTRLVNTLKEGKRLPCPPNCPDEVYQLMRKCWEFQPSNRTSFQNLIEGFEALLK
Chain of UniProt P49761 (whole entry, looked up): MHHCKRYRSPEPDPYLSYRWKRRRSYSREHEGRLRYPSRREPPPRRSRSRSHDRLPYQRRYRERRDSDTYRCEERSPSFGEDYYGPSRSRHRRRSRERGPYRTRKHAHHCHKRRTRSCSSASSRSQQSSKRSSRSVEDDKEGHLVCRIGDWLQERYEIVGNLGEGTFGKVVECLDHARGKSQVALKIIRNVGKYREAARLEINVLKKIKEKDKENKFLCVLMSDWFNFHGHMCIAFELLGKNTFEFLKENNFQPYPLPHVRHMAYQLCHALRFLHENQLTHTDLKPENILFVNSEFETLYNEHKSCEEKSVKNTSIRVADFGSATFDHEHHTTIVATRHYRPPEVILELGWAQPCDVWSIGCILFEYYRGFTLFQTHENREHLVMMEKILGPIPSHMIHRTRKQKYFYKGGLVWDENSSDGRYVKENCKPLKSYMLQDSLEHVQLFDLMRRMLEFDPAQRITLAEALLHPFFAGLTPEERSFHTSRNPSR
Chain of UniProt Q8N5S9 (whole entry, looked up): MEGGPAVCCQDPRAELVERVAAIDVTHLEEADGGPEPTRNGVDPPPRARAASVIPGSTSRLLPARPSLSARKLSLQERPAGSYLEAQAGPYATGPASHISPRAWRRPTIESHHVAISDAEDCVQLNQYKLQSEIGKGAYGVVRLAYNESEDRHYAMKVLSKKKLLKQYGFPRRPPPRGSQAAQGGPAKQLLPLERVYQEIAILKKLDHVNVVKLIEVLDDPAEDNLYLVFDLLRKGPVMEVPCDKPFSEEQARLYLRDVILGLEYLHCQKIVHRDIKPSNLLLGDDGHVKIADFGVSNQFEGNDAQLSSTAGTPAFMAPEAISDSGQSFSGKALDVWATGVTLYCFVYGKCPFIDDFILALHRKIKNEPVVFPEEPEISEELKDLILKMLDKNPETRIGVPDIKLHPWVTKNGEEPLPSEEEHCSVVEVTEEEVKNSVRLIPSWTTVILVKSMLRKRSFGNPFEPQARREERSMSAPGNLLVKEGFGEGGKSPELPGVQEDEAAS

Sample 1 — read-out: enzyme activity; action: inhibitor; concentration: 0.5 µM; reference: control; endpoint: remaining activity
Target: Calcium/calmodulin-dependent protein kinase type II subunit delta (CAMK2D, Homo sapiens, UniProt Q13557)
Chain of UniProt Q13557 (whole entry, looked up): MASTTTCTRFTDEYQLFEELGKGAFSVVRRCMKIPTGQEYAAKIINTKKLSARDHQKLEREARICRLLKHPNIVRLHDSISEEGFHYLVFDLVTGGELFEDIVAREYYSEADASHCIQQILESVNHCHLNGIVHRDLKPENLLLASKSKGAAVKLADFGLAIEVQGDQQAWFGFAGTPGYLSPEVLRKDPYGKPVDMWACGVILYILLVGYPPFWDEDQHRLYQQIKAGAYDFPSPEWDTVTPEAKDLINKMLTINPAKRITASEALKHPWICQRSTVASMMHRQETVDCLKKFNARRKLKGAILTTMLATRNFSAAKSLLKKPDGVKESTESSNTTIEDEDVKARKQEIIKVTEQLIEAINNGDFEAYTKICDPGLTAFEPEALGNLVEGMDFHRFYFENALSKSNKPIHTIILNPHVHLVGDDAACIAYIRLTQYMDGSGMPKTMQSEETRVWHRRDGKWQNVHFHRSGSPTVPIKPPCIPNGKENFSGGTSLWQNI
CNC(=O)c1cc(Oc2ccc(NC(=O)Nc3ccc(Cl)c(C(F)(F)F)c3)cc2)ccn1: 102%
Cn1c2ccccc2c2c3c(c4c5ccccc5n(CCC#N)c4c21)CNC3=O: 20.3%
Cc1ccc(Nc2nccc(N(C)c3ccc4c(C)n(C)nc4c3)n2)cc1S(N)(=O)=O: 99.4%
COc1cc2ncnc(Nc3ccc(Oc4ccccc4)cc3)c2cc1OC: 97.2%
COc1ccc(C(=O)Nc2sc3c(c2C(N)=O)CCCC3)cc1OC: 104%
O=C1NC(=O)C(c2cn(CCCn3ccnc3)c3ccccc23)=C1Nc1ccccc1: 85.4%
COc1cc2nccc(Oc3ccc(NC(=S)NC(=O)c4ccccc4C)cc3)c2cc1OC: 102%
Nc1ccc2ncnc(NCCc3ccc(Oc4ccccc4)cc3)c2c1: 98.9%
Cc1cccc(-c2[nH]c(C(C)(C)C)nc2-c2ccc3c(c2)OCO3)n1: 100%

Sample 2 — Structure (SMILES): CSc1cccnc1N1CCN(Cc2nc3ccccc3[nH]2)CC1; read-out: cell-free assay; method: competition with immobilised ligand; concentration: 1 µM; endpoint: remaining binding
CLK3 (Homo sapiens, UniProt P49761): 85%
EGFR (Homo sapiens, UniProt P00533): 100%
CAMKK1 (Homo sapiens, UniProt Q8N5S9): 100%
PIK3CG (Homo sapiens, UniProt P48736): 64%
Tyrosine-protein kinase JAK2, JH1 (JAK2, Homo sapiens, UniProt O60674): 65%
MAPK13 (Homo sapiens, UniProt O15264): 100%
NTRK1 (Homo sapiens, UniProt P04629): 85%
Tyrosine-protein kinase JAK1, JH1 (JAK1, Homo sapiens, UniProt P23458): 100%

Sample 3 — method: LC-MS/MS; host: human cancer patients; medium: plasma; endpoint: plasma concentration
SMILES: COc1ccc(-c2c(Nc3ccccn3)[nH]c3c(C4=CCCCC4)c(-c4ccccc4)nn3c2=O)cc1
refers to: methionine; 200 mg BID, 8 h, geometric mean, cycle 1 day 200: 68400 ng/mL
refers to: S-adenosylmethionine; 200 mg BID, 0 h, mean, cycle 1 day 200: 10.9 ng/mL
refers to: methionine; 200 mg BID, 8 h, median, cycle 1 day 200: 94000 ng/mL
refers to: methionine; 200 mg BID, 0 h, geometric mean, cycle 1 day 200: 66000 ng/mL
refers to: methionine; QD, dose not given, 6 h, geometric mean, cycle 1 day 50: 64800 ng/mL

Other studies, line by line
CC(C)n1cnc(-c2ccc(F)cc2)c1-c1ncc(C(=O)Nc2ccc(N3CCN(C)CC3)cc2)[nH]1 — patients with Nasopharyngitis (human, idiopathic pulmonary fibrosis; 30 mg once daily, trial, treatment-emergent): 0%

A few entries again (sample 1):
Cc1ccc(Nc2nccc(N(C)c3ccc4c(C)n(C)nc4c3)n2)cc1S(N)(=O)=O: 99.4%
